Published values from different studies.
Every numbered part comes from another study and shows a few of its results, in no order. Changes are numbered by the printed parent chain.

Block 1
Target: CCNB2, cyclin fold, Cln2 fusion (human)
Technique: yeast growth competition, sequencing
Medium: yeast
Notes: weak parent motif
Relative to: not given
Reading: higher = stronger binding
Endpoint: normalised enrichment score
Starting sequence: SCAPER docking peptide (human); SNARRSLNFGGST; partner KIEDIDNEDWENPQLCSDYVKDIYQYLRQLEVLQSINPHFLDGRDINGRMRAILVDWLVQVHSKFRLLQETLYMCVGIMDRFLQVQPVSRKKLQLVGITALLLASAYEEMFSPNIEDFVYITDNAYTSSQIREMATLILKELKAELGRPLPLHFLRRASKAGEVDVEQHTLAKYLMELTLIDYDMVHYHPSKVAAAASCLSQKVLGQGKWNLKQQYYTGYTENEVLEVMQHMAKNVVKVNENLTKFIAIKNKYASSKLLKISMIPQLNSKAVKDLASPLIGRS
SNARRSLNFGSST [G11S]: -0.256
SNARRSLNQGGST [F9Q]: 0.144
SNLRRSLNFGGST [A3L]: 0.206
SNARRSTNFGGST [L7T]: 0.303
SNARRSNNFGGST [L7N]: -0.12
SNARRSLFFGGST [N8F]: 0.272
SNARDSLNFGGST [R5D]: 0.143
SFARRSLNFGGST [N2F]: -0.0506

Block 2
Target: ABI1, truncated, D143A, DHFR fusion (Arabidopsis thaliana)
Technique: DHFR PCA, deep sequencing
Medium: yeast
Notes: methotrexate growth selection, single substitutions
With: (+)-ABA 1.4 µM
Relative to: wild-type fitted maximum
Reading: higher = stronger binding
Endpoint: relative binding score
Starting sequence: PYL1, truncated, DHFR fusion (Arabidopsis thaliana); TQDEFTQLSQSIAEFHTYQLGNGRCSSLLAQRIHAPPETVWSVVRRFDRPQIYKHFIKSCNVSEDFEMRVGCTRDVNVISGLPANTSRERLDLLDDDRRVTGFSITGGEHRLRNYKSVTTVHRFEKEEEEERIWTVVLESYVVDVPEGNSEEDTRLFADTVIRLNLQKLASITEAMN; partner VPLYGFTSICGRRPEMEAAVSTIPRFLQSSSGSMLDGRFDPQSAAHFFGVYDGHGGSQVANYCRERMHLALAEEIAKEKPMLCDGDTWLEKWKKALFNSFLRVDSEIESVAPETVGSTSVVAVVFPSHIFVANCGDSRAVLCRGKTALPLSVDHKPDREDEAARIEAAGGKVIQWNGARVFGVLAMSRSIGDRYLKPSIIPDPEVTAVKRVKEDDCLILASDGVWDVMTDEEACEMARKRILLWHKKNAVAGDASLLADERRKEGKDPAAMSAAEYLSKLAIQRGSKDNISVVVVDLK
S42C: 24.4%
L164V: 60.7%
V145Q: -24.7%
T1P: 53.9%
L91F: -2.74%
F124G: 30%
E151K: 48.1%
D48A: -2.16%
W134E: 79.7%

Block 3
Target: RING finger protein unkempt homolog, zinc fingers 1-6, GST-SBP tag (UNK, Homo sapiens, UniProt Q9C0B0, residues 30-357)
Technique: RNA Bind-n-Seq
Form: RNA
Medium: in vitro
Concentration: not given
Notes: RNA with constant flanks, human and mouse sites, ends assumed
Relative to: input RNA pool
Reading: higher = stronger binding
Endpoint: bound/input enrichment
All sequences stand within: GGGAGUUCUACAGUCCGACGAUC … CAACAGAGGAUUGAGCAUCA
Residues (chain): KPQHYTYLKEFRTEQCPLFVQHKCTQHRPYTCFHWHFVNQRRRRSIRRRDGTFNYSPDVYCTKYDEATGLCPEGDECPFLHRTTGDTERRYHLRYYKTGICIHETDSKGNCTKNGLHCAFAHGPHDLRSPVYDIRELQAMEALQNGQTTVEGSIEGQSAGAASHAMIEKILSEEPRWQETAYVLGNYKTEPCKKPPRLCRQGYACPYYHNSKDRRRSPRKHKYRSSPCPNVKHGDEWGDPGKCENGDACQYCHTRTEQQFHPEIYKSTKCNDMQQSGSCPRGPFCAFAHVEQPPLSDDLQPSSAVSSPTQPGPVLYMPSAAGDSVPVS
GAUUAUUGUCAUAAGAAGAACUUUUUGCAUAGAGAUAUUAAAUGUUCAAAUAUCCUUCUAAAUAAUAGAGGACAGAUAAAACUUGCAGAUUUUGGACUUGCUCGUUUAUAUAGCUCAGAA: 4.59 ratio
CAUCUCGCCCACGUGGUGUUAAGCGUCGCUGGAGACUUAGUCGCAUUGUCUUCCGCCACUUAGCUGACCACGGGCUACUUUCUGGAGUCCAGCGAGCGAUAUGGUAAAACCAUUUCAGAA: 0.088 ratio
CGUGGCAUCCCCUGGAAGGAUGAGGCACAGGUAGUGAAGUGGGCCCUAGAGAAGCUGGAACUGACAAAGUAUGCAGACAAGCCAGCUGGCACCUACAGUGGAGGCAACAAACGGAAGCUU: 0.147 ratio
AAUAUAUUACAGUUCAUUCCACAGAAAGCAUCCAAACCACCCAAAUGACCAAGGCAUAUAUAGUAUUUGGAGGAAUCAGGGGUUUGGAAGGAGUAGGGAGGAGAAUGAAGGAAAAUGCAA: 0.447 ratio
AAAUACAUCCACAUCUUGGCGUACGCAGCAAGCGUGGUUGAGACCUGGAAGAAGAACAAGCGAGUGAGCAUCAAUAAAGAUGAGCUGAAGUCAACGUCAAAAGCUGUCGAAACCGUUCAC: 0.0833 ratio
CUGUGUAAUGAAAAACUAUUAAAAAAGGCUCGUAUACAUCCAUUUCAUAUUUUGAUCGCAUUAGAAACUUACAAGACAGGUCAUGGUCUCAGAGGGAAACUGAAGUGGCGCCCUGAUGAA: 1.31 ratio
AUCAAGGCAGACCUGGCAGCUGUCGAGGCAAAAGUAAACCGGAGCACUGCUCUUCUGAAGAGCUUGUCUGCUGAACGUGAACGAUGGGAAAAAACAAGUGAAACUUUCAAAAACCAGAUG: 0.109 ratio
UCUGUCUGACUCCUGGGUCUGUGCGCCAUGGCAUGAGUGUUUUCUAGUAGUAGACUGGAGUAGUAGACUGUUUCUAAGAACAGAUGAUCUGGUUCCUGAUGUGUAGAGACUCUUAUGUAC: 0.419 ratio
CUGAUGAAAUUGCUAGAUGAGGCUCUAAAGGAGGUAGAUCAGAUUGAAUUGAAACUGAGCAGUUAUGAGGAAAUGCUCCAAAGUGUAAAAGAACAAAUGGAUCAGAUCUCUGAAAGCAAC: 0.257 ratio

Single results of other studies
PhoQ, residues 284 288 289 292 302 303 SLANIV  fold induction (PhoP, residues 12 14 15 18 19 YHFSH (Escherichia coli, UniProt P23836); Sort-seq, refers to: YFP reporter; E. coli; PhoQ-PhoP variant library, with: 10 µM Mg2+; relative to: high Mg2+ state, higher = stronger signaling): 12.8

A few entries again (block 1):
SNARRSLNFGSST [G11S]: -0.256
SNARRSLNQGGST [F9Q]: 0.144
SNLRRSLNFGGST [A3L]: 0.206
